Published values pooled from the literature.
Each line is one published result; not all experiments were run side by side. ± marks the error that the study gave.
OPRK1: Kappa-type opioid receptor (OPRK1, Homo sapiens, UniProt P41145)
UniProt P41145, sequence (whole entry, unmodified, looked up): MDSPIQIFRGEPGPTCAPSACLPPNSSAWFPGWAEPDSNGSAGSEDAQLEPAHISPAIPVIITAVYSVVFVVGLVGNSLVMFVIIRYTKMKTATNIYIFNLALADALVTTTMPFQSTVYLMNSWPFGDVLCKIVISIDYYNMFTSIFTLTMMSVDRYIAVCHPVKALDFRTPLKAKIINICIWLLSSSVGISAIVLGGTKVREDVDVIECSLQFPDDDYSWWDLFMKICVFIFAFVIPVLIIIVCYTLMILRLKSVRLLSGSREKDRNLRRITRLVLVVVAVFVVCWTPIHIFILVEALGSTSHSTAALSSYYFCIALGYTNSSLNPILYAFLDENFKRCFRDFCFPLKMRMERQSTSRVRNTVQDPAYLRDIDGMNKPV

SMILES | target | assay | test system | conditions | quantity | value
Oc1cccc(N2C3CCC2CN(CCc2ccccc2)C3)c1 | OPRK1 | cell-based |  |  | IC50 | 698 ± 40 nM
NC(N)=Nc1ccc2[nH]c3c(c2c1)C[C@@]1(O)[C@H]2Cc4ccc(O)c5c4[C@@]1(CCN2CC1CC1)[C@H]3O5 | OPRK1 (Homo sapiens, UniProt P41145, E297A) |  |  |  | Ki | 22 nM
CCCC[C@@H](NC(=O)[C@@H](N)Cc1c(C)cc(O)cc1C)C(=O)NCC(=O)N[C@@H](Cc1ccc(F)cc1)C(=O)N(C)CCC[C@@]1(c2ccc(F)cc2)OCc2cc(C#N)ccc21 | OPRK1 |  |  |  | IC50 | 12 nM
Cc1cccc(C)c1N1C(=O)[C@H](CC2CNc3ccccc32)NC2(CCN(C)CC2)C1=O (stereo partly shown) | OPRK1 | binding |  |  | Ki | > 10000 nM
C[C@@H]1N=C(c2ccccc2F)c2cc(Br)ccc2-n2cnc(C(=O)O)c21 | OPRK1 | binding |  |  | IC50 | > 10000 nM
C[C@@H](NC(=O)[C@@H](N)Cc1ccc(O)cc1)C(=O)NCC(=O)N[C@@H](Cc1ccc(Cl)cc1)C(=O)N(C)CCC[C@@]1(c2ccc(F)cc2)OCc2cc(C#N)ccc21 | OPRK1 |  |  |  | IC50 | 151 nM
Cc1cccc(C)c1N1C(=O)[C@H](CO)NC2(CCN(C)CC2)C1=O | OPRK1 | binding |  |  | Ki | > 10000 nM
C/C=C1/C[N+]2(Cc3ccccc3)CC[C@]34C(=C(C(=O)OC)[C@H]1C[C@@H]32)Nc1ccccc14 (stereo partly shown) | OPRK1 | cAMP inhibition, agonist, HitHunter | CHO-K1 | together with: forskolin | EC50 | > 10000 nM
Cc1cc(O)cc(C)c1C[C@H](N)C(=O)N1Cc2ccccc2CC1C(=O)NCC(=O)NC(Cc1ccc(Cl)cc1)C(=O)N(C)CCC[C@@]1(c2ccc(F)cc2)OCc2cc(C#N)ccc21 (stereo in doubt) | OPRK1 |  |  |  | IC50 | 324 nM
C/C=C1/CN2CC[C@]34c5ccccc5N[C@@H]3[C@H](C(=O)OC)[C@H]1C[C@H]24 | OPRK1 | cAMP inhibition, agonist, HitHunter | CHO-K1 | together with: forskolin | EC50 | > 10000 nM
COC(=O)/C=C/C(=O)N[C@@H]1CC[C@@]2(O)[C@H]3Cc4ccc(O)c5c4[C@@]2(CCN3CC2CC2)[C@H]1O5 | OPRK1 (Homo sapiens, UniProt P41145, E297K) | reversible binding, radioligand saturation binding | N2a membranes | together with: [3H]compound | Kd | 10.3 ± 3.39 nM
C/C=C1/C[N+]2(CCC)CC[C@]34C(=C(C(=O)OC)[C@H]1C[C@@H]32)Nc1ccccc14 (stereo partly shown) | OPRK1 | cAMP inhibition, agonist, HitHunter | CHO-K1 | together with: forskolin | EC50 | > 10000 nM
COc1cc(C(=O)N2CC[C@@H](O)[C@@H](N)C2)cc2nc(-c3cc4ccccc4n3CC3CC3)n(C)c12 | OPRK1 | G protein activation, agonist, GTPγS binding |  |  | EC50 | > 100000 nM

Some of these lines once more:
SMILES | target | assay | test system | conditions | quantity | value
Oc1cccc(N2C3CCC2CN(CCc2ccccc2)C3)c1 | OPRK1 | cell-based |  |  | IC50 | 698 ± 40 nM
